Measurements collected from several papers.
Lines come from different studies, so protocols differ. ± marks the error that the study gave.
Sequence of UniProt O60656 (whole entry, looked up): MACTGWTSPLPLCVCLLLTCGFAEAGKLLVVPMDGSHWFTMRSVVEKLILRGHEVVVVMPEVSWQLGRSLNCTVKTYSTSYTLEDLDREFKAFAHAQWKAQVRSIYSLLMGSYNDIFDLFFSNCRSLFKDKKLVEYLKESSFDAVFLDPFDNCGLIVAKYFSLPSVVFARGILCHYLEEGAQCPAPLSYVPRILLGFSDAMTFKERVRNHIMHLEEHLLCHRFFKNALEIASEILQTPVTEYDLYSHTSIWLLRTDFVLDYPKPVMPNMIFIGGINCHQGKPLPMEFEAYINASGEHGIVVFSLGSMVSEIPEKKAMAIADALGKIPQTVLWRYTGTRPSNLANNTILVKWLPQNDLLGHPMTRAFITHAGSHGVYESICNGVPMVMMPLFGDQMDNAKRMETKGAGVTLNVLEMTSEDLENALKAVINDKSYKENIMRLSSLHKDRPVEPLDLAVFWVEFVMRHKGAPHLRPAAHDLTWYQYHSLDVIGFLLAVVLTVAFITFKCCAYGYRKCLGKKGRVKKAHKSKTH

With `insulin degludec` the AUC(0-120 h) was 0.0833 µM·h (human, mild hepatic impairment, serum; subcutaneous, 0.4 U/kg single dose).
`insulin degludec` gave an AUC(0-120 h) of 0.0811 µM·h (insulin degludec-specific ELISA; healthy human subjects, serum; subcutaneous, deltoid, 0.4 U/kg).
With `CC(C)[C@H](NC(=O)[C@@H]1CCCN1C(=O)[C@H](CCCNC(=N)N)NC(=O)[C@H](CS)NC(=O)[C@H](Cc1c[nH]c2ccccc12)NC(=O)[C@H](CCCNC(=N)N)NC(=O)[C@@H](Cc1ccccc1)NC(=O)[C@H](Cc1c[nH]cn1)NC(=O)[C@H](CCC(=O)O)NC(=O)[C@H](CS)NC(=O)[C@H](CS)NC(=O)[C@H](CCCNC(=N)N)NC(=O)[C@@H]1CC(=O)N[C@@H](CCCNC(=N)N)C(=O)N[C@@H](C)C(=O)N[C@@H](CC(=O)O)C(=O)N[C@H](Cc2ccc(O)cc2)C(=O)N1)C(N)=O` [technetium-99m labelled] the tissue uptake was 80.2 ± 2.77 %ID (C57 mouse, urinary bladder; intravenous, 0.037 MBq, 4 h).
For `CC(C)[C@H](NC(=O)[C@@H]1CCCN1C(=O)[C@H](CCCNC(=N)N)NC(=O)[C@H](CS)NC(=O)[C@H](Cc1c[nH]c2ccccc12)NC(=O)[C@H](CCCNC(=N)N)NC(=O)[C@@H](Cc1ccccc1)NC(=O)[C@H](Cc1c[nH]cn1)NC(=O)[C@H](CCC(=O)O)NC(=O)[C@H](CS)NC(=O)[C@H](CS)NC(=O)[C@H](CCCCN)NC(=O)[C@@H]1CC(=O)N[C@@H](CCCNC(=N)N)C(=O)N[C@@H](C)C(=O)N[C@@H](CC(=O)O)C(=O)N[C@H](Cc2ccc(O)cc2)C(=O)N1)C(N)=O` [technetium-99m labelled], the tissue uptake was 0.13 ± 0.04 %ID/g (C57 mice, heart; intravenous, 0.037 MBq, 24 h).
Under “time to 95% clearance”, `insulin lispro` is recorded as 6.4 h (human, type 1 diabetes; subcutaneous, FAST PK setting, no carbohydrate interventions).
For `COc1cccc2c1C(=O)c1c(O)c3c(c(O)c1C2=O)C[C@@](O)(C(=O)CO)C[C@@H]3O[C@H]1C[C@H](NC(=O)[C@@H]2CCCN2C(=O)CN)[C@H](O)[C@H](C)O1`, the terminal half-life was 12.7 h (mouse, E0771 tumour-bearing, kidney; intravenous, 92 µmol/kg PhAc-ALGP-Dox).
With `CSCC[C@H](NC(=O)[C@H](CC(C)C)NC(=O)[C@H](Cc1c[nH]cn1)NC(=O)CNC(=O)[C@@H](NC(=O)[C@H](C)NC(=O)[C@H](Cc1c[nH]c2ccccc12)NC(=O)[C@H](CCC(N)=O)NC(=O)CCCCCNC(=O)[C@H](CCC(=O)NCCCC[C@@H]1NC(=O)[C@@H](Cc2ccc(O)cc2)NC(=O)[C@H](CC(=O)O)NC(=O)CNC(=O)[C@H](CCCNC(=N)N)NC1=O)NC(=O)CN1CCN(CC(=O)O)CCN(CC(=O)O)CC1)C(C)C)C(N)=O` [copper-64 labelled] the tissue uptake was 0.96 ± 0.21 %ID/g (ICR SCID mouse, female, spleen; intravenous, 750 kBq, 1 h).
For `Insulin human`, the concentration was 8.3 ± 4.9 pg/mg tissue (ELISA; rat, hippocampus; intranasal, 20 µg per nostril, 120 min).
The terminal half-life of `COc1cccc2c1C(=O)c1c(O)c3c(c(O)c1C2=O)C[C@@](O)(C(=O)CO)C[C@@H]3O[C@H]1C[C@H](NC(=O)[C@@H]2CCCN2C(=O)CNC(=O)[C@@H](N)CC(C)C)[C@H](O)[C@H](C)O1` is reported as 3.3 h (mouse, E0771 tumour-bearing, kidney; intravenous, 92 µmol/kg PhAc-ALGP-Dox).
`UGT1A9 (Homo sapiens, UniProt O60656)` gave a Vmax/Km of 25 µL/min/mg (Cc1ccc(O)cc1; steady-state kinetics; pH 7.4, 37 °C).
For `rnpA F107W (Bacillus subtilis)`, the pKa was 6.16 (NMR, refers to: His3; 25 °C, 0.15 M NaCl, sulfate-bound folded state, with: 20 mM Na2SO4).

For quick reference, copied from above:
For `rnpA F107W (Bacillus subtilis)`, the pKa was 6.16 (NMR, refers to: His3; 25 °C, 0.15 M NaCl, sulfate-bound folded state, with: 20 mM Na2SO4).
For `COc1cccc2c1C(=O)c1c(O)c3c(c(O)c1C2=O)C[C@@](O)(C(=O)CO)C[C@@H]3O[C@H]1C[C@H](NC(=O)[C@@H]2CCCN2C(=O)CN)[C@H](O)[C@H](C)O1`, the terminal half-life was 12.7 h (mouse, E0771 tumour-bearing, kidney; intravenous, 92 µmol/kg PhAc-ALGP-Dox).
